Measurements of several laboratories.
Protocols differ between the studies behind these lines.
Cell line: HEK293
Read-out: cell growth or viability

| Compound | assay | conditions | measurement | result |
| --- | --- | --- | --- | --- |
| N#Cc1cc(F)c(-c2c(Cl)nc(-c3cccs3)nc2NCC2CCC2)c(F)c1 | resazurin | 48 h | CC50 | > 50 µM |
| Cc1ccc(Cn2cc(C(=O)N/N=C/c3ccc([N+](=O)[O-])s3)c(=O)c3cc(Br)ccc32)cc1 | resazurin | 48 h | CC50 | > 20 µM |
| CCCc1cc(=O)oc2cc(OCc3cc(=O)c(O)co3)ccc12 | CCK-8 | 4 µM, 24 h | viability | 101% |
| CC(C)[C@@H](C)Nc1nc(-c2cccs2)nc(Cl)c1-c1ccc(F)cc1 | resazurin | 48 h | CC50 | > 50 µM |
| Cc1ccc(Cn2cc(C(=O)N/N=C/c3ccc([N+](=O)[O-])o3)c(=O)c3cc(Cl)ccc32)cc1 | resazurin | 48 h | CC50 | 1.9 µM |
| Cc1onc(-c2ccccc2)c1-c1ccc(S(N)(=O)=O)cc1 | MTT | 24 h | CC50 | > 200 µM |
| NC(=S)NN=Cc1ccc(OC(=O)CN2C(=O)CSC2=O)cc1 | MTT | 50 µg/mL, 24 h | viability | > 70% |
| Nc1ccn([C@@H]2O[C@H](CO)[C@@H](O)C2(F)F)c(=O)n1 | MTT | 10 µg/mL, 48 h | viability | 17.4% |
| CC1(CNc2nc(-c3cccs3)nc(Cl)c2-c2c(F)cc(C#N)cc2F)COC1 | resazurin | 48 h | CC50 | 23.7 µM |
| Cc1ccc(S(=O)(=O)[N](Nc2ccc([N+](=O)[O-])cc2[N+](=O)[O-])[Sn]([Cl])[Cl])cc1 | MTT | 62.5 µg/mL | viability | 84.3% |
| Fc1cc(F)c(-c2c(Cl)nc(-c3cccs3)nc2N2CCOC2)c(F)c1 | resazurin | 48 h | CC50 | 36.7 µM |
| CO[C@H]1/C=C/O[C@@]2(C)Oc3c(C)c(O)c4c(O)c(c(/C=N/N5CCN(C)CC5)c(O)c4c3C2=O)NC(=O)/C(C)=C\C=C[C@H](C)[C@H](O)[C@@H](C)[C@@H](O)[C@@H](C)[C@H](OC(C)=O)[C@@H]1C | MTT | 24 h | CC50 | > 400 µM |
| Fc1cc(F)c(-c2c(Cl)nc(-c3cccs3)nc2N2CCCC2)c(F)c1 | resazurin | 48 h | CC50 | 28.2 µM |
| O=C(O)c1cc(-c2ccc(Br)cc2)nc2ccc(Cl)cc12 | MTT | 24 h | CC50 | > 200 µM |
| O=C(N/N=C/c1ccc([N+](=O)[O-])o1)c1cn(Cc2ccccc2)c2ccc(Oc3ccccc3)cc2c1=O | resazurin | 48 h | CC50 | > 20 µM |
| Cc1ccc(S(=O)(=O)NNc2ccc([N+](=O)[O-])cc2[N+](=O)[O-])cc1 | MTT | 31.25 µg/mL | viability | 85.4% |

Excerpt of the above:
| Compound | assay | conditions | measurement | result |
| --- | --- | --- | --- | --- |
| Cc1onc(-c2ccccc2)c1-c1ccc(S(N)(=O)=O)cc1 | MTT | 24 h | CC50 | > 200 µM |
| CC(C)[C@@H](C)Nc1nc(-c2cccs2)nc(Cl)c1-c1ccc(F)cc1 | resazurin | 48 h | CC50 | > 50 µM |
